Published values collected from several papers.
Protocols differ between the studies behind these lines. Values joined by “and” are separate records of one study, mostly repeats; a detail may differ. ± gives the spread as reported.
CD274: Programmed cell death 1 ligand 1 (CD274, Homo sapiens, UniProt Q9NZQ7)
UDP-3-O-acyl-N-acetylglucosamine deacetylase C40S: UDP-3-O-acyl-N-acetylglucosamine deacetylase (Pseudomonas aeruginosa, UniProt P47205, C40S)
Chain of UniProt P53350 (whole entry, unmodified, looked up): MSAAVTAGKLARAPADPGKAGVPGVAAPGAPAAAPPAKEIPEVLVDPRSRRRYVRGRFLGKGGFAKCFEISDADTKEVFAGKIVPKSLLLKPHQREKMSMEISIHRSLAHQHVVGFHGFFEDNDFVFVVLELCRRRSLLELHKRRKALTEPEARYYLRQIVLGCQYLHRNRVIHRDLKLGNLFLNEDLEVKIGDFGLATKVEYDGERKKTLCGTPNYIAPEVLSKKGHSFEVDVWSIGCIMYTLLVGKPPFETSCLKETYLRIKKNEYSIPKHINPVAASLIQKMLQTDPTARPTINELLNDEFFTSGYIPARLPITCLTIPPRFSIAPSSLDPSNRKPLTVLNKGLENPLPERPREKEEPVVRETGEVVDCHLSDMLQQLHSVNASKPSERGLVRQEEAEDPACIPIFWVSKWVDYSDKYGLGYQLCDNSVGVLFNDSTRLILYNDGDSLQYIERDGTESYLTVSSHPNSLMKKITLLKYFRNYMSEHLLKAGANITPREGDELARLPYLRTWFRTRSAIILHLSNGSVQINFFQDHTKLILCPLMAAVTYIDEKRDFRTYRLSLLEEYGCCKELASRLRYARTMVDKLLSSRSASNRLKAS
Chain of UniProt P02716 (whole entry, unmodified, looked up): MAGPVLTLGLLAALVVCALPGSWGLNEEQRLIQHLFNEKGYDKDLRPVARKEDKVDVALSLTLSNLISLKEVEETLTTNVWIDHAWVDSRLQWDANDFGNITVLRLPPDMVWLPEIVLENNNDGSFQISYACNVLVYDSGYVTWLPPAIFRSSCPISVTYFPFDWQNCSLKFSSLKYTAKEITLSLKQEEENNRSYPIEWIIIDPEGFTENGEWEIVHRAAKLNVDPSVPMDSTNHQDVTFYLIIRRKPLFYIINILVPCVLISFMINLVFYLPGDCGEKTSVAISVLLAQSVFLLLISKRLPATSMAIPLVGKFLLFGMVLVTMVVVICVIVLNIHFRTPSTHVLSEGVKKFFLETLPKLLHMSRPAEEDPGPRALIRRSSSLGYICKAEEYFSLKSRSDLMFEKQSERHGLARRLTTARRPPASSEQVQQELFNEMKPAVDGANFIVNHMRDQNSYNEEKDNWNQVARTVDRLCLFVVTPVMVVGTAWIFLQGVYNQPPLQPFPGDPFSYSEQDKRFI
Chain of UniProt Q16543 (whole entry, looked up): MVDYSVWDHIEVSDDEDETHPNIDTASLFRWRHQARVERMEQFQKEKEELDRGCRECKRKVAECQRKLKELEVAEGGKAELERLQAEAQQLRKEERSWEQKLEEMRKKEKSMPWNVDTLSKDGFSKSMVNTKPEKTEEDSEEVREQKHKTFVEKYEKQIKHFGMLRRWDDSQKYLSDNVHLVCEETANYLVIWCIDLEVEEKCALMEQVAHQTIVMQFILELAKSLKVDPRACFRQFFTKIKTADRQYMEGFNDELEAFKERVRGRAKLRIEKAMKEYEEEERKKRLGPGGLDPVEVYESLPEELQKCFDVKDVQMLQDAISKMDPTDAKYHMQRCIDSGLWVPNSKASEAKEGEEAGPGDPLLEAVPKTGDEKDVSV
Chain of UniProt P34981 (whole entry, looked up): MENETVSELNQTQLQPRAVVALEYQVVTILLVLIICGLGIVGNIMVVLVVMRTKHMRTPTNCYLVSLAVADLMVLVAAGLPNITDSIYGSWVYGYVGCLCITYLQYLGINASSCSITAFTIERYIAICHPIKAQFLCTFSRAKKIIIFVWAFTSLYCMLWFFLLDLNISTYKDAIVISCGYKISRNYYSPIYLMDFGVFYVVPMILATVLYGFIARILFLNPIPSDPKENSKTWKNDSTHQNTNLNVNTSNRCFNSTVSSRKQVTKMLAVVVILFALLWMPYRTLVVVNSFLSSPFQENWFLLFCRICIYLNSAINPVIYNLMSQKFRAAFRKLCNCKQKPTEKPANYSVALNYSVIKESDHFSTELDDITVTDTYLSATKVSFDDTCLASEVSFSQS
Chain of UniProt P04756 (whole entry, unmodified, looked up): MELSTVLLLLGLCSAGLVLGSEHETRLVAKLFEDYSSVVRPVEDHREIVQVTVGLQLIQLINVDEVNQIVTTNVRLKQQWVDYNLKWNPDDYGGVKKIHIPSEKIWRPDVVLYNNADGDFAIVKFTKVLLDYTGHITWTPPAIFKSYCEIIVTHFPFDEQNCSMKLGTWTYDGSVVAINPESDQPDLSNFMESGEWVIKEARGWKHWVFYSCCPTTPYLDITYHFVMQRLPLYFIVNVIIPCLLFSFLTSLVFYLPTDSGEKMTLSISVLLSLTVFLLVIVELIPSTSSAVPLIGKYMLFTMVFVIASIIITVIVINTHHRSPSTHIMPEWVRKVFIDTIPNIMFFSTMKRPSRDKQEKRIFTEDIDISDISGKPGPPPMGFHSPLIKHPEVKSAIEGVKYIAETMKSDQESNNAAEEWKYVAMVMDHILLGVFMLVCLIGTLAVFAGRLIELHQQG
Chain of UniProt P78314 (whole entry, looked up): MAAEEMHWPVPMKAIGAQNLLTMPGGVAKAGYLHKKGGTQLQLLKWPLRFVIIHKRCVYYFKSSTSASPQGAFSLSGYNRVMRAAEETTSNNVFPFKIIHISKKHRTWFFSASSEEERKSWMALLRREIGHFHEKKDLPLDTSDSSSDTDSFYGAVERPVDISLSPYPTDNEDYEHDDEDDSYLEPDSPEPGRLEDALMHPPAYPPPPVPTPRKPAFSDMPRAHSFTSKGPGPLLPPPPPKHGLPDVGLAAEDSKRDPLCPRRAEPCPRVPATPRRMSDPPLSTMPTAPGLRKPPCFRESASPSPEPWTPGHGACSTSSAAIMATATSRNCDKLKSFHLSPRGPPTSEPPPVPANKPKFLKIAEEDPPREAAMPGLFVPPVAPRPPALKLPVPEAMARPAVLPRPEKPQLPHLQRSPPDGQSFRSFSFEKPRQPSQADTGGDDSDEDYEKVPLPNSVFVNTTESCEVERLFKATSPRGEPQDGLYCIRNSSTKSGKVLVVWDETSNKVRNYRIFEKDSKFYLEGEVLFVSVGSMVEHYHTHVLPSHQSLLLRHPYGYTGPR
Chain of UniProt P20782 (whole entry, unmodified, looked up): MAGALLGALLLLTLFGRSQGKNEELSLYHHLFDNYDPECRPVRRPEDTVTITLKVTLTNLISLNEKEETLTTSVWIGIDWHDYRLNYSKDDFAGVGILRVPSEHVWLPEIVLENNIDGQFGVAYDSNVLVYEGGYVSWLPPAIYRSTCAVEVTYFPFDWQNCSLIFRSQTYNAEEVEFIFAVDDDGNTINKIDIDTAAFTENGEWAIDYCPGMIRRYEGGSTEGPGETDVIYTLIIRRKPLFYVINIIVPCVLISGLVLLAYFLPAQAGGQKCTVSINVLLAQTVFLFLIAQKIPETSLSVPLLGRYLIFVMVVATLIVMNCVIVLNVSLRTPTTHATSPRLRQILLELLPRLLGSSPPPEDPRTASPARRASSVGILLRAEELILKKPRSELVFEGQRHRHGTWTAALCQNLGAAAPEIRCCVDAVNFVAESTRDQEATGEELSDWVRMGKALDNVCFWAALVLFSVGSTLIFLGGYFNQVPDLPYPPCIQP

With CC[C@H](C)[C@H](NC(=O)[C@H](Cc1c[nH]c2ccccc12)NC(=O)[C@H](Cc1ccccc1)NC(=O)[C@H](CCCCN)NC(=O)[C@H](CC(N)=O)NC(=O)[C@H](CC(C)C)NC(=O)[C@@H](NC(=O)[C@H](Cc1c[nH]cn1)NC(=O)[C@H](CC(=O)O)NC(=O)[C@H](CC(C)C)NC(=O)[C@H](Cc1ccccc1)NC(=O)[C@@H](NC(=O)[C@@H]1CCCN1C(=O)[C@@H](N)CCSC)[C@@H](C)CC)[C@@H](C)CC)C(=O)N[C@@H](CC(C)C)C(=O)N[C@@H](Cc1c[nH]cn1)C(=O)N[C@@H](Cc1ccc(O)cc1)C(=O)N[C@@H](C)C(N)=O the Kd was 26.5 nM and 49.8 nM (CD274; biolayer interferometry).
CN(CC(=O)O)C(=N)NP(=O)(O)O gave a Kd of 10000 ± 8000 nM (CKMT1A (Homo sapiens, UniProt P12532); microscale thermophoresis; pH 7.0, WT mutant, no substrate).
O=C(NO)[C@H]1COC(c2ccc(OC(F)(F)F)c(Cl)c2)=N1 has a Kd of 3800 nM (UDP-3-O-acyl-N-acetylglucosamine deacetylase C40S; binding, thermal shift; pH 7.0, equimolar ZnCl2).
COc1cc2c(Oc3ccc4[nH]c(C)cc4c3F)ccnc2cc1OCC1(N)CC1: “grade 1 or 2 bone pain” 25% (paediatric recurrent refractory sarcoma; 8 mg).
For CC1(CNC(=O)c2ccc(-c3ccc(Br)cc3)cc2)NC(=O)NC1=O (stereo not shown), the Kd was > 100000 nM (UDP-3-O-acyl-N-acetylglucosamine deacetylase C40S; binding).
For CC[C@H](C)[C@H](NC(=O)[C@H](Cc1ccccc1)NC(=O)[C@H](CCC(=O)O)NC(=O)[C@H](CCCNC(=N)N)NC(=O)[C@H](C)NC(=O)[C@H](C)NC(=O)[C@H](CCC(N)=O)NC(=O)[C@H](CCC(=O)O)NC(=O)[C@H](CCC(=O)O)NC(=O)[C@H](CC(C)C)NC(=O)[C@H](Cc1ccc(O)cc1)NC(=O)[C@H](CO)NC(=O)[C@H](CO)NC(=O)[C@@H](NC(=O)[C@H](CC(=O)O)NC(=O)[C@H](CO)NC(=O)[C@@H](NC(=O)[C@H](Cc1ccccc1)NC(=O)[C@@H](NC(=O)CNC(=O)[C@H](CCC(=O)O)NC(=O)[C@H](C)NC(=O)CCc1c[nH]cn1)[C@@H](C)O)[C@@H](C)O)C(C)C)C(=O)N[C@@H](C)C(=O)N[C@@H](Cc1c[nH]c2ccccc12)C(=O)N[C@@H](CC(C)C)C(=O)N[C@H](C(=O)N[C@@H](CCCNC(=N)N)C(=O)NCC(=O)N[C@@H](CCCNC(=N)N)C(=O)N[C@@H](CCCCNC(=O)COCCOCCNC(=O)COCCOCCNC(=O)CC[C@H](NC(=O)CCCCCCCCCCCCCCCCC(=O)O)C(=O)O)C(=O)NCC(=O)NCC(=O)N[C@@H](CO)C(=O)N[C@@H](CCCCNc1c(NCCCCCN(O)C(=O)CCC(=O)NCCCCCN(O)C(=O)CCC(=O)NCCCCCN(O)C(C)=O)c(=O)c1=O)C(=O)O)C(C)C [zirconium-89 labelled], the tissue uptake was 0.18 %ID/g (rat, femur; intravenous, 3 nmol/kg, 168 h).
For CC[C@@H](C)[C@@H](NC(=O)[C@@H](Cc1ccc(O)cc1)NC(=O)[C@H]1CCCN1C(=O)[C@@H](CCCNC(=N)N)NC(=O)[C@H](N)Cc1c[nH]cn1)C(=O)N[C@H](C)C(=O)N[C@H](Cc1c[nH]cn1)C(=O)N[C@H](CCCNC(=N)N)C(=O)N[C@H](CCCCNC(=O)c1cccc(S(=O)(=O)F)c1)C(=O)N[C@H](Cc1ccc(O)cc1)C(=O)N[C@H](CO)C(=O)N[C@H](Cc1ccccc1)C(N)=O, the Kd was 2400 ± 3100 nM (CD274; microscale thermophoresis; 6 h, His-tagged protein).
With CSCC[C@H](NC(=O)CNC(=O)[C@H](Cc1ccccc1)NC(=O)[C@H](CC(=O)O)NC(=O)CNC(=O)c1ccc2c(c1)C(=O)OC21c2ccc(N(C)C)cc2Oc2cc(N(C)C)ccc21)C(=O)N[C@@H](CO)C(=O)N[C@@H](CCCNC(=N)N)C(=O)N[C@@H](CC(=O)O)C(=O)N[C@H](C(=O)N[C@@H](Cc1ccc(OP(=O)(O)O)cc1)C(=O)N[C@@H](CO)C(=O)N[C@H](C(=O)N[C@@H](CC(=O)O)C(=O)N[C@@H](Cc1ccc(O)cc1)C(=O)N[C@@H](Cc1ccc(O)cc1)C(=O)N[C@@H](CCCNC(=N)N)C(=O)N[C@H](C(=O)N[C@@H](CC(=O)O)C(=O)O)C(C)C)[C@@H](C)O)C(C)C the Kd was 561 nM (SH3 domain-binding protein 2, SH2 domain (SH3BP2, Homo sapiens, UniProt P78314); binding).
For C[N+](C)(C)C, the Kd was 81000 nM (Chrnd/Chrna1/Chrne (Mus musculus, UniProt P02716+P04756+P20782, G173S/S470W); binding, agonist, single-channel recording; binding site chain S side).
For CC(=O)N[C@@H](Cc1ccccc1)C(=O)N[C@@H](CC(=O)O)C(=O)N1CCC[C@H]1C(=O)N1CCC[C@H]1C(=O)N[C@@H](CC(C)C)C(=O)N[C@@H](Cc1c[nH]cn1)C(=O)N[C@@H](CO)C(=O)N[C@H](C(=O)N[C@@H](C)C(N)=O)[C@@H](C)OP(=O)(O)O, the Kd was 720 nM (Serine/threonine-protein kinase PLK1, polo-box domain (PLK1, Homo sapiens, UniProt P53350, Y417A/Y421A); isothermal titration calorimetry; Y417A/Y421A double mutant).
With C[C@H]1CN(c2n[nH]c3nc(N[C@H]4CC[C@H](NS(=O)(=O)CCC(F)(F)F)CC4)ncc23)CCO1 the relative abundance was 1.17 (CDC37 (Homo sapiens, UniProt Q16543); inhibitor, Kinobeads competition profiling; 0.8 µM; relative to: vehicle).
For C[C@@H](O)[C@@H](CO)NC(=O)[C@@H](CCCNC(=N)N)NC(=O)[C@@H]1CCCN1C(=O)[C@@H]1CSSC[C@H](NC(=O)[C@H](Cc2ccccc2)NC(=O)CN2CCN(CC(=O)O)CCN(CC(=O)O)CCN(CC(=O)O)CC2)C(=O)N[C@@H](Cc2ccc(O)cc2)C(=O)N[C@@H](Cc2ccccc2)C(=O)N[C@@H](CCC(N)=O)C(=O)N[C@@H](CC(N)=O)C(=O)N1 [gallium-68 labelled], the tissue uptake was 0.47 %ID/g (Wistar rat, healthy, Submandibular gland; intravenous, 8 MBq, 30 min).
CO[C@H]1/C=C\C=C(/C)C(=O)NC2=CC(=O)C(NCCCCCCNC(=S)Nc3ccc(-c4c5ccc(=O)cc-5oc5cc(O)ccc45)c(C(=O)O)c3)=C(C[C@@H](C)C[C@H](OC)[C@H](O)[C@@H](C)/C=C(\C)[C@@H]1OC(N)=O)C2=O has a Kd of 2.3 nM (Heat shock protein 90 homolog (Candida albicans, UniProt P46598); binding, fluorescence polarization; together with: geldanamycin-FITC probe).
With CCCCCCCC(=O)OC[C@H](COP(=O)(O)O[C@@H]1[C@H](O)[C@H](OP(=O)(O)O)[C@@H](O)[C@H](O)[C@H]1O)OC(=O)CCCCCCC the Kd was 750 ± 193 nM (PP2C family protein phosphatase (Vibrio splendidus, UniProt A0ABV4LX41, N139A)).
With COc1cc(Nc2ncc(F)c(Nc3ccc4c(n3)NC(=O)C(C)(C)O4)n2)cc(OC)c1OC the IC50 was > 10 µM (TRHR (Homo sapiens, UniProt P34981)).
The Kd of CC(=O)N[C@@H](CC(N)=O)C(=O)N[C@@H](CC(C)C)C(=O)NCC(=O)N[C@@H](CCCCN)C(=O)N[C@@H](Cc1c[nH]cn1)C(=O)N[C@@H](CCC(=O)O)C(=O)N[C@@H](CCCCN)C(=O)N[C@@H](Cc1ccccc1)C(=O)N[C@@H](CO)C(=O)N[C@@H](CCC(=O)O)C(=O)N[C@H](C(=O)N[C@@H](CC(C)C)C(=O)N[C@@H](CCCCN)C(=O)N[C@@H](CCCNC(=N)N)C(=O)N[C@@H](CC(C)C)C(=O)N[C@@H](CCCNC(=N)N)C(=O)N[C@@H](CC(C)C)C(=O)N[C@@H](CCC(N)=O)C(N)=O)C(C)C is reported as 130 nM (Calmodulin-1, C-lobe (CALM1, Homo sapiens, UniProt P0DP23); ITC; C-lobe, together with: 1 mM CaCl2).

Excerpt of the above:
For CC[C@@H](C)[C@@H](NC(=O)[C@@H](Cc1ccc(O)cc1)NC(=O)[C@H]1CCCN1C(=O)[C@@H](CCCNC(=N)N)NC(=O)[C@H](N)Cc1c[nH]cn1)C(=O)N[C@H](C)C(=O)N[C@H](Cc1c[nH]cn1)C(=O)N[C@H](CCCNC(=N)N)C(=O)N[C@H](CCCCNC(=O)c1cccc(S(=O)(=O)F)c1)C(=O)N[C@H](Cc1ccc(O)cc1)C(=O)N[C@H](CO)C(=O)N[C@H](Cc1ccccc1)C(N)=O, the Kd was 2400 ± 3100 nM (CD274; microscale thermophoresis; 6 h, His-tagged protein).
With CSCC[C@H](NC(=O)CNC(=O)[C@H](Cc1ccccc1)NC(=O)[C@H](CC(=O)O)NC(=O)CNC(=O)c1ccc2c(c1)C(=O)OC21c2ccc(N(C)C)cc2Oc2cc(N(C)C)ccc21)C(=O)N[C@@H](CO)C(=O)N[C@@H](CCCNC(=N)N)C(=O)N[C@@H](CC(=O)O)C(=O)N[C@H](C(=O)N[C@@H](Cc1ccc(OP(=O)(O)O)cc1)C(=O)N[C@@H](CO)C(=O)N[C@H](C(=O)N[C@@H](CC(=O)O)C(=O)N[C@@H](Cc1ccc(O)cc1)C(=O)N[C@@H](Cc1ccc(O)cc1)C(=O)N[C@@H](CCCNC(=N)N)C(=O)N[C@H](C(=O)N[C@@H](CC(=O)O)C(=O)O)C(C)C)[C@@H](C)O)C(C)C the Kd was 561 nM (SH3 domain-binding protein 2, SH2 domain (SH3BP2, Homo sapiens, UniProt P78314); binding).
